Published values from different studies.
Parts stem from different laboratories: compare values within a part only. Substitutions count along the parent as printed.

Set 1
Target: Histone acetyltransferase KAT6A, both winged helices, GST fusion (KAT6A, Homo sapiens, UniProt Q92794, residues 1-181)
Technique: protein binding microarray
Form: double-stranded DNA, one strand shown
Sample: in vitro
Tested at: not given
Setting: 8-mer, flanks averaged, mean of 2 arrays, mostly near background
Relative to: not given
Reading: higher = stronger binding
Measurement: E-score
Target sequence (chain): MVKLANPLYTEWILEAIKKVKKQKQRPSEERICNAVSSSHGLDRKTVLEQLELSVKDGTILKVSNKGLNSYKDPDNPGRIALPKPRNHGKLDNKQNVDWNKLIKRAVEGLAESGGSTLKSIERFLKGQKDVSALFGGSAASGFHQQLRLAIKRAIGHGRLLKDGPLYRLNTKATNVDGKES
ACCGTTGC: 0.19
GACCCCTC: -0.21
AAACCAAG: -0.048
GAGCTAGC: -0.0352
CGGGTACC: 0.138
ATTGAGCC: -0.0374
TCCACTAA: -0.151
ATGGGCTG: -0.174
CATAATGA: -0.0485
TAGCTTCA: -0.0785
AGTCCTGA: -0.194
ATAAGCTC: -0.126
GCGGGTAA: 0.254
AATGTGCT: 0.0664
ATATGAGC: -0.0429
CGGATTAC: 0.0832
AAGAATTC: -0.0634
GCTTGGAA: 0.0222
GAAACAAC: -0.045
ACTCGATG: -0.106

Set 2
Target: CEBPD, bZIP domain (human)
Technique: DHFR protein complementation
Sample: yeast
Setting: single substitutions, most at no-binding floor
Relative to: wild-type JUN-FOS pair
Reading: higher = stronger binding
Measurement: binding fitness
Parent: JUN, bZIP domain (human); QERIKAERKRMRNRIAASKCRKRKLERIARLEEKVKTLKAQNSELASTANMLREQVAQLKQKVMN; partner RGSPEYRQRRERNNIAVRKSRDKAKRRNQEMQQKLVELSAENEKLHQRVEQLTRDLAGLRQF
A49T: -1.5 natural log
L45N: -1.48 natural log
A57T: -1.42 natural log
A57V: -1.41 natural log
A49Q: -1.41 natural log
L31A: -1.42 natural log
R30S: -1.22 natural log
L52F: -1.27 natural log
K39A: -1.26 natural log
S43Q: -1.28 natural log
Q55T: -1.48 natural log
Q55I: -1.36 natural log
I28V: -1.35 natural log
E44N: -1.46 natural log
R53G: -1.35 natural log
A46E: -1.1 natural log
R30M: -1.4 natural log
V35C: -1.23 natural log
A46R: -1.31 natural log
L59W: -1.41 natural log
R53L: -1.46 natural log
A29T: -1.33 natural log
M51T: -1.35 natural log
V56S: -1.5 natural log

Set 3
Target: ABI1, truncated, D143A, DHFR fusion (Arabidopsis thaliana, UniProt P49597)
Technique: DHFR PCA, dose-response
Sample: yeast
Setting: Hill fit, not affinity, not high confidence
Added: (+)-ABA, dose series
Reading: lower = more sensitive
Measurement: ABA EC50
Parent: PYL1, truncated, DHFR fusion (Arabidopsis thaliana, UniProt Q8VZS8); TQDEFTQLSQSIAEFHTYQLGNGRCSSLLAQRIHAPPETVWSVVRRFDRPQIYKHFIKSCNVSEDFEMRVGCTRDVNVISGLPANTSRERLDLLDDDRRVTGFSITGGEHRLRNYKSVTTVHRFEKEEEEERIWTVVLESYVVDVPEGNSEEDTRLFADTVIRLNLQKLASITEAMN
L166S: 885 µM
H110T: 358 µM
P83R: 0.374 µM
V121Y: 0.119 µM
S140Q: 745 µM
L91Y: 8.53 µM
N149H: 216 µM
V44W: 704 µM
P83L: 725 µM
L169W: 182 µM
Q7H: 2.78 µM
S117F: 3.32 µM
L138E: 898 µM

Set 4
Organism: Saccharomyces cerevisiae
Read-out: binding
Technique: yeast competitive growth sequencing
Form: peptide
Strain: cyclin B3-Cln2 fusion strain
Setting: peptide tiling library
Reading: direction not given
Measurement: enrichment score
QNPCGSKACRRLFGPV: -1.42
EHCRVLFLDHVMYTIH: -1.79
SPPRGRRLFPPGPAGF: 0.108
GPVKLEFDVSDGAT: -0.459
RQVRRDLFAF: -0.851
VKRLNFRSEEME: -0.116
GTPKRCLDLSNLSSGE: -0.373
EPRNLLSLFEDTLDPT: 0.672
YLYLLLTQSLWCRV: -1.99
PHKTFRKLRLFDTPHT: -1.53
KVRRNLFNQELLSP: -0.787
SNFFDVIKQLFSDEKN: 0.991
QYQVVDDIVSKLVFDF: 0.849
NEGVSNAVRRSLYIRD: -0.534
KRCATPVIIDEILPSK: 1.56
RTEALEQGGLPKKLIF: 1.48

A few entries again (set 4):
PHKTFRKLRLFDTPHT: -1.53
KVRRNLFNQELLSP: -0.787
SNFFDVIKQLFSDEKN: 0.991
QYQVVDDIVSKLVFDF: 0.849
NEGVSNAVRRSLYIRD: -0.534
KRCATPVIIDEILPSK: 1.56
RTEALEQGGLPKKLIF: 1.48
